Assay results of several laboratories.
Each line is one published result; not all experiments were run side by side. ± gives the spread as reported.

COC(=O)c1c[nH]c2ccc(CN3CCN(c4ccc(C(F)(F)F)cc4)CC3)cc2c1=O  EC50 (Plasmodium berghei; HepG2, liver stage; 44 h): 0.085 to 0.09 µM
O=C1/C(=N\NC(=S)NN=Cc2ccccc2)c2ccccc2N1Cc1ccccc1  EC50 (respiratory syncytial virus; viral replication; HeLa): > 20 µM
Cc1ccc(S(=O)(=O)N2C(=O)CSC2c2ccc(C(C)C)cc2)cc1 (stereo not shown)  EC50 (herpes simplex virus 1; viral cytopathicity; HEL, KOS TK-deficient acyclovir-resistant): > 100 µM
CC(=NNC(=O)CN1c2c(-c3ccccc3)n[nH]c2-c2ccccc2S1(=O)=O)c1ccc2ccccc2c1  EC50 (HIV-1; viral replication; PBMC): > 100 µM
COC(=O)c1c[nH]c2cc(CN3CCN(Cc4ccccc4)CC3)ccc2c1=O  EC50 (Plasmodium berghei; HepG2, liver stage; 44 h): 0.044 to 0.083 µM
O=C(C=Cc1ccc2ccccc2n1)c1cc(Cl)ccc1O  EC50 (Alphacoronavirus 1; viral replication, inhibitor; CRFK): 4.03 µM
Cn1cnc(S(=O)(=O)N2CCCCN3[C@H](CO)[C@@H](c4ccc(-c5ccc(F)cc5)cc4)[C@@H]3C2)c1  EC50 (respiratory syncytial virus; cytopathic effect; HEp-2, A2; 5 days, original sample): 2.9 µM
O=c1ccn([C@@H]2CS[C@H](CO)[C@H]2F)c(=O)[nH]1  EC50 (Coxsackievirus B3; viral cytopathic effect; HeLa): > 100 µg/mL
CN1c2ccc(-c3ccc(C#N)cc3)cc2[C@H]2[C@H](CCN2C(=O)c2cccc(F)c2)[C@@H]1CO  EC50 (respiratory syncytial virus; cytopathic effect; HEp-2, A2; 5 days, original sample): 1.3 µM
Nc1nc(F)nc2c1ncn2[C@@H]1O[C@H](COP(=O)(O)O)[C@@H](O)[C@@H]1O  EC50 (human coronavirus NL63; cytopathic effect, MTS; LLC-MK2; 5 days): 7.15 µM
CC1SC2(CCCCC2)N(NC(=O)Cc2csc3nc(-c4ccc(Br)cc4)cn23)C1=O (stereo not shown)  EC50 (feline herpesvirus; viral cytopathic effect; CRFK): > 100 µg/mL
Cc1cccc(C)c1OCC(=O)N[C@@H](Cc1ccccc1)[C@@H](O)C[C@H](Cc1ccccc1)NC(=O)[C@H](C(C)C)N1CCCNC1=O  EC50 (Alphacoronavirus 1; viral replication, inhibitor; CRFK; 2 h): 6.22 µM
Cc1ccc(S(=O)(=O)N2C(=O)CSC2c2ccccc2F)cc1 (stereo not shown)  EC50 (herpes simplex virus 1; viral cytopathicity; HEL, KOS TK-deficient acyclovir-resistant): > 100 µM
NC(=O)c1ncn([C@@H]2O[C@H](CO)[C@@H](O)[C@H]2O)n1  EC50 (Alphacoronavirus 1; viral replication, inhibitor; CRFK): 51.5 µM
equisetin  EC50 (Trichomonas vaginalis; viability; 17 h): 3 µM
Cc1ccc(S(=O)(=O)N2C(=O)CSC2c2cccc(Br)c2)cc1 (stereo not shown)  EC50 (herpes simplex virus 1; viral cytopathicity; HEL, KOS TK-deficient acyclovir-resistant): > 100 µM
CC(C)(C)C(=O)N(CCCCCCN1C[C@H](O)[C@@H](O)[C@H](O)[C@H]1CO)C1CCCCC1  EC50 (bovine viral diarrhea virus; MDBK; 22 h): 0.4 ± 0.6 µM
NC(=O)c1ncn([C@@H]2O[C@H](CO)[C@@H](O)[C@H]2O)n1  EC50 (respiratory syncytial virus; viral replication; HeLa): 4 µM
COC(=O)N[C@H](C(=O)N1CCC[C@H]1c1ncc(-c2ccc(-c3ccc(-c4cnc([C@@H]5CCCN5C(=O)[C@@H](NC(=O)OC)C(C)C)[nH]4)cc3)cc2)[nH]1)C(C)C  EC50 (hepatitis C virus; viral replication, transient replicon; genotype 1a NS5A L31V): 0.02 ± 0.006 µM
O=C(CN1c2c(n[nH]c2-c2cccc(Cl)c2)-c2ccccc2S1(=O)=O)NN=Cc1ccccc1[N+](=O)[O-]  EC50 (HIV-1; viral replication; PBMC): > 100 µM
O=C(NCc1ccc(F)cc1F)c1cn(Cc2ccccc2)cc(O)c1=O  EC50 (Human betaherpesvirus 5; viral replication, inhibitor; 7 days): 1 µM
O=S(=O)(c1cccs1)N1CCCCN2[C@H](CO)[C@@H](c3ccc(/C=C/c4ccccc4)cc3)[C@@H]2C1  EC50 (respiratory syncytial virus; cytopathic effect; HEp-2, A2; 5 days, original sample): 1.7 µM
C[C@H]1CN(c2n[nH]c3nc(N[C@H]4CC[C@H](NS(=O)(=O)CCC(F)(F)F)CC4)ncc23)CCO1  EC50 (Leishmania donovani; mouse peritoneal macrophages, resistant clone intramacrophage amastigotes): 6.31 µM
O=c1cc(OCc2cccc(I)c2)oc2ccc(OCc3cccc(Cl)c3)c(O)c12  EC50 (Hepatitis C virus; viral replication, inhibitor; Huh-7, GETYPE1; 96 h, replicon): 3 to 4 µM
COc1ccc(C=NNC(=O)CN2c3c(n[nH]c3-c3cccc(Cl)c3)-c3ccccc3S2(=O)=O)c(OC)c1OC  EC50 (HIV-1; viral replication; PBMC): < 5 µM
O=Cc1cc(Cn2ccc(=O)[nH]c2=O)ccc1O  EC50 (human cytomegalovirus; cytopathic effect; HEL fibroblasts, AD-169): > 100 µM
NCCOCC(=O)NC1CCN(S(=O)(=O)c2cc(C(=O)Nc3cc(F)c(F)c(F)c3)ccc2F)CC1  EC50 (Hepatitis B virus; viral replication, inhibitor, qPCR; HePAD38): 4.89 µM
CC(=CC(=O)NCCCCNc1cc(C(F)(F)F)nc2c(C(F)(F)F)cccc12)C(=O)NCCCCNc1cc(C(F)(F)F)nc2c(C(F)(F)F)cccc12  EC50 (Zika virus; viral cytopathic effect, visual CPE scoring; Vero): 2.35 µM
Nc1ncnc2c1ncn2C[C@H](O)CO  EC50 (respiratory syncytial virus; viral replication; HeLa): > 250 µM
O=C(NO)c1ccc(O)c(O)c1  EC50 (human cytomegalovirus; viral spread, GFP reporter; ARPE-19, BADrUL131-Y4 (AD169, GFP); 14 d): 182 ± 23 µM
CN[C@@H]1[C@H](O[C@@H]2OC[C@@H](O)[C@H](O)[C@H]2O)[C@@H](O)[C@H](O[C@H]2c3cc(C)c(C(=O)N[C@H](C)C(=O)O)c(O)c3-c3c(cc4c(c3O)C(=O)c3cc(OC)cc(O)c3C4=O)[C@@H]2O)O[C@@H]1C  EC50 (Alphacoronavirus 1; viral replication, inhibitor, luciferase; 6 h): > 120 µM
O=C(NCc1ccc(F)cc1)c1cn(Cc2ccc(F)cc2)cc(O)c1=O  EC50 (Human betaherpesvirus 5; viral replication, inhibitor; 7 days): 0.78 µM
Cc1ccc(S(=O)(=O)N2C(=O)CSC2c2ccc(O)cc2)cc1 (stereo not shown)  EC50 (herpes simplex virus 1; viral cytopathicity; HEL, KOS): > 100 µM
O=C(NCc1c(F)cccc1Cl)c1cn(Cc2ccc(F)cc2)cc(O)c1=O  EC50 (Human betaherpesvirus 5; viral replication, inhibitor; 7 days): 0.3 µM
CCOC(=O)C(C)NP(=O)(COC(CF)CN1CN2C=C(c3ccc(OC)cc3)NC2=NC1=O)NC(C)C(=O)OCC (stereo not shown)  EC50 (herpes simplex virus 1; cytopathic effect; HEL, KOS, TK-deficient, acyclovir-resistant): > 100 µM
Cc1ccc(S(=O)(=O)N2C(=O)CSC2c2ccccc2O)cc1 (stereo not shown)  EC50 (herpes simplex virus 1; viral cytopathicity; HEL, KOS TK-deficient acyclovir-resistant): > 100 µM
CC(NC(=O)c1cn(Cc2ccc(F)cc2)cc(O)c1=O)c1ccc(F)cc1F (stereo not shown)  EC50 (Human betaherpesvirus 5; viral replication, inhibitor; 7 days): 0.53 µM
Cc1cn(Cc2ccc(O)c(C=O)c2)c(=O)[nH]c1=O  EC50 (human cytomegalovirus; cytopathic effect; HEL fibroblasts, Davis): > 100 µM
CN(Cc1ccc(F)cc1F)C(=O)c1cn(Cc2ccc(F)cc2)cc(O)c1=O  EC50 (Human betaherpesvirus 5; viral replication, inhibitor; 7 days): 1.4 µM
O=C(CN1c2c(n[nH]c2-c2cccc(Cl)c2)-c2ccccc2S1(=O)=O)NN=Cc1cccc(Br)c1  EC50 (HIV-1; viral replication; PBMC): > 10 µM

A few entries again:
Cc1cn(Cc2ccc(O)c(C=O)c2)c(=O)[nH]c1=O  EC50 (human cytomegalovirus; cytopathic effect; HEL fibroblasts, Davis): > 100 µM
CN(Cc1ccc(F)cc1F)C(=O)c1cn(Cc2ccc(F)cc2)cc(O)c1=O  EC50 (Human betaherpesvirus 5; viral replication, inhibitor; 7 days): 1.4 µM
